Measurements pooled from the literature.
Lines come from different studies, so protocols differ.

With `CCn1cc(/C=C/c2sc3ccccc3[n+]2CC)c2ccccc21` the emission maximum was 540 nm (MeOH; added: excitation 488 nm).
The emission maximum of `CCCCN1C(=O)c2cccc3c(NCCCCN4CCOCC4)ccc(c23)C1=O` is reported as 554 nm (aqueous medium; pH 6).
`COc1ccc2cc(-c3ccc(-c4ccc(C)cn4)nc3)oc2c1` gave an emission maximum of 524 nm (aqueous HEPES buffer; pH 7.4, zinc(II) complex).
`CCCCN1C(=O)c2cccc3c(NCCCCCCN4CCOCC4)ccc(c23)C1=O` gave an emission maximum of 502 nm (toluene).
`Nc1ncnc2c1nc(-n1nnc3c1CCC1C(CO)C1CC3)n2C1CC(O)C(CO)O1` (mixture of isomers) gave an emission maximum of 392 nm (DMSO).
`COc1cc(OC)cc(C2=C3C(C)=C(I)C(C)=[N+]3[B-](F)(F)n3c(/C=C/c4c[nH]c5ccccc45)c(I)c(C)c32)c1` has an emission maximum of 668 nm (THF).
With `NCCC(=O)N1Cc2ccccc2-c2c(nnn2-c2nc(N)c3ncn(C4OC(CO)C(O)C4O)c3n2)-c2ccccc21` (mixture of isomers) the emission maximum was 422 nm (DMSO).
For `COc1cc(OC)cc(C2=C3C(C)=C(I)C(C)=[N+]3[B-](F)(F)n3c(C)c(I)c(C)c32)c1`, the emission maximum was 549 nm (dichloromethane).
`Nc1nc(-n2nnc3c2CCC2C(CO)C2CC3)nc2c1ncn2C1OC(CO)C(O)C1O` (mixture of isomers) has an emission maximum of 395 nm (methanol).
The emission maximum of `COc1ccc(/C=C/c2ccc(-c3ccc(C)cn3)nc2)cc1` is reported as 431 nm (acetonitrile; zinc-free ligand).
`COCCOCCOCCOc1ccc(/C=C/c2c(I)c(C)c3n2[B-](F)(F)[N+]2=C(C)C(I)=C(C)C2=C3c2cc(OC)cc(OC)c2)cc1` has an emission maximum of 612 nm (THF).
